Assay results from different studies.
Each numbered part is a random draw from the data of one study; scales do not carry over between parts. “And” joins repeats or separate records; there may be more than shown.
UniProt Q9H2X6, sequence (whole entry, looked up): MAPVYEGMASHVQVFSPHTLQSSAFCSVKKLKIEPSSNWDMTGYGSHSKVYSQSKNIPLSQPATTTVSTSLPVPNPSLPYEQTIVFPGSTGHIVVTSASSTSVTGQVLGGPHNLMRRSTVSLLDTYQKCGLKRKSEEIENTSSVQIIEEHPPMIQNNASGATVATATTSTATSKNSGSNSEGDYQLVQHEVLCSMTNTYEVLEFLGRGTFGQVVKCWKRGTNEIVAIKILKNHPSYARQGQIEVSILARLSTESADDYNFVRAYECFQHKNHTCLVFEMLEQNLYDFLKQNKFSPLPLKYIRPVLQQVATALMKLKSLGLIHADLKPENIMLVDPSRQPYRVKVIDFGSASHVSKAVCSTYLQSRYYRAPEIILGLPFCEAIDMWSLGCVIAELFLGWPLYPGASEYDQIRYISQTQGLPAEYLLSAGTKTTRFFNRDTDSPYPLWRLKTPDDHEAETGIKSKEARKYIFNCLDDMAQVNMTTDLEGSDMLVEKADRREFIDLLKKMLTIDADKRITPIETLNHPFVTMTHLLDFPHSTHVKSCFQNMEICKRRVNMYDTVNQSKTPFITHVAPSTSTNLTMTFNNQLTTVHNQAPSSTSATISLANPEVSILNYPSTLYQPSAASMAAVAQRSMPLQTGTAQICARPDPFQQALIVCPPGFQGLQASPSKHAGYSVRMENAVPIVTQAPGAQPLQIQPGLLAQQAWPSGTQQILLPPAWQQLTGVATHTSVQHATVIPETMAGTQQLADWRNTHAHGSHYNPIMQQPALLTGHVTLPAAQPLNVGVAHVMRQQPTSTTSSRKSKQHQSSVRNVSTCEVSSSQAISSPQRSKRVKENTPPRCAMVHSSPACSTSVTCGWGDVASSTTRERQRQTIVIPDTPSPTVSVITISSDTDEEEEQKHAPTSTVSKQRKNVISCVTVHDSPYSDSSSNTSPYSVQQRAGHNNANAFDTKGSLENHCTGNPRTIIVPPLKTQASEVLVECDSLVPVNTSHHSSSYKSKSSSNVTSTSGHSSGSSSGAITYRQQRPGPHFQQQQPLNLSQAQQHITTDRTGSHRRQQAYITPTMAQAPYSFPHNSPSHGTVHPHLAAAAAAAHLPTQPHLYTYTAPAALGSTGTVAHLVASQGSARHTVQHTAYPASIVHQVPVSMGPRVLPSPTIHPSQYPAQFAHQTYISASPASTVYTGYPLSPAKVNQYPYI
UniProt O43781, sequence (whole entry, looked up): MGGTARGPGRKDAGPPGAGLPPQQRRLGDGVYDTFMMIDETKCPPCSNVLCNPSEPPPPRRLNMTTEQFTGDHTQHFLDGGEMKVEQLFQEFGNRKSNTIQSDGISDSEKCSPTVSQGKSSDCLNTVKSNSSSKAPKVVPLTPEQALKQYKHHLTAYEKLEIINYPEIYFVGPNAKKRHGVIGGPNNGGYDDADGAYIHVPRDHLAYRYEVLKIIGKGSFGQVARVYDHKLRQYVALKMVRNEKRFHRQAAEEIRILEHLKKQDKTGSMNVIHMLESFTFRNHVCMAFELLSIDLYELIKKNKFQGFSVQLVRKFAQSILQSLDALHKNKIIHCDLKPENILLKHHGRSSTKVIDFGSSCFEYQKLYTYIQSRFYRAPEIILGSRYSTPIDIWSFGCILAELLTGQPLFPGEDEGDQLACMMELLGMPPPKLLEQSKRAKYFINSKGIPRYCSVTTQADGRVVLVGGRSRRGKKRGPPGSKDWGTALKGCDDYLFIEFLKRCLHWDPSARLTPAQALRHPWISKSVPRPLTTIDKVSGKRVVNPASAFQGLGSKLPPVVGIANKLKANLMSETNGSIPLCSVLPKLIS
UniProt P30530, sequence (whole entry, looked up): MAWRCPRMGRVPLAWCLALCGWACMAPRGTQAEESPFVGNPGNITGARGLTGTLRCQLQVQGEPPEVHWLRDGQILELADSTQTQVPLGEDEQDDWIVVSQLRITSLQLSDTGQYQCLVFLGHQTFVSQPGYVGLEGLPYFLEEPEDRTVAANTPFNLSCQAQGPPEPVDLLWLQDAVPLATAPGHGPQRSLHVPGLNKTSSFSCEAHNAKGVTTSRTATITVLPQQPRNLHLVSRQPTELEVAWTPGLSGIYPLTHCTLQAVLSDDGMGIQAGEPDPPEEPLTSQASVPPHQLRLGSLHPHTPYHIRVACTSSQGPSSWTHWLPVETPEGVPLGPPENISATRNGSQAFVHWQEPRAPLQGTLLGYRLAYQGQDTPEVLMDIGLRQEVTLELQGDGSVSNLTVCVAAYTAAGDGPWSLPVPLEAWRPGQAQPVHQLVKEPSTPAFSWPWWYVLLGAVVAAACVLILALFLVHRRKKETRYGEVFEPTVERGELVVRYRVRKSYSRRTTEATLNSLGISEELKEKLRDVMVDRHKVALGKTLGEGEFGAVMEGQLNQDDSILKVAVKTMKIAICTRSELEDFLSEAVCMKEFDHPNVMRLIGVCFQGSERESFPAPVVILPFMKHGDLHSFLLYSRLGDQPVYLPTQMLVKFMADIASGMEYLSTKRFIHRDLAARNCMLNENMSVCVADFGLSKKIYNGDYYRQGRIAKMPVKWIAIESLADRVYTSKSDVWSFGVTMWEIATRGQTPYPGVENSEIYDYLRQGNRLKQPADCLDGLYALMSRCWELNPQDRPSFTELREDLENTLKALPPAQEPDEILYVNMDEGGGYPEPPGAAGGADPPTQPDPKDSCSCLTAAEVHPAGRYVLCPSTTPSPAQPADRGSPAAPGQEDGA

Block 1
SMILES: CC(C)S(=O)(=O)c1ccc2nccc(Nc3ccc4sc(C5CCCC5)nc4c3)c2c1.Cl
Measurement: viability
cell line = L929; assay = CCK-8; conditions = 12.5 µM, together with: zVAD; result = 105% and 108% and 106% and 103%
cell line = L929 RIPK3 knockout; conditions = 3.125 µM, together with: zVAD; result = 102% and 105% and 103%
cell line = L929; assay = CCK-8; conditions = 3.125 µM; result = 101% and 97.7% and 100% and 103% and 102%
cell line = L929 RIPK3 knockout; conditions = 1.563 µM, together with: zVAD; result = 100% and 103% and 98.9% and 101%
cell line = L929 RIPK3 knockout; conditions = 12.5 µM, together with: zVAD; result = 104% and 103% and 101%
cell line = L929; assay = CCK-8; conditions = 12.5 µM; result = 113% and 112% and 110%
cell line = L929 RIPK3 knockout; conditions = 3.125 µM; result = 97.5% and 104% and 97.3% and 96%
cell line = L929 RIPK3 knockout; conditions = 50 µM; result = 58.9% and 62.4% and 61.1% and 64% and 62.7%
cell line = L929; assay = CCK-8; conditions = 25 µM; result = 88.4% and 92.1% and 90.7% and 84.4%

Block 2
Target: Muscarinic acetylcholine receptor M1 (CHRM1, Homo sapiens, UniProt P11229)
UniProt P11229, sequence (whole entry, looked up): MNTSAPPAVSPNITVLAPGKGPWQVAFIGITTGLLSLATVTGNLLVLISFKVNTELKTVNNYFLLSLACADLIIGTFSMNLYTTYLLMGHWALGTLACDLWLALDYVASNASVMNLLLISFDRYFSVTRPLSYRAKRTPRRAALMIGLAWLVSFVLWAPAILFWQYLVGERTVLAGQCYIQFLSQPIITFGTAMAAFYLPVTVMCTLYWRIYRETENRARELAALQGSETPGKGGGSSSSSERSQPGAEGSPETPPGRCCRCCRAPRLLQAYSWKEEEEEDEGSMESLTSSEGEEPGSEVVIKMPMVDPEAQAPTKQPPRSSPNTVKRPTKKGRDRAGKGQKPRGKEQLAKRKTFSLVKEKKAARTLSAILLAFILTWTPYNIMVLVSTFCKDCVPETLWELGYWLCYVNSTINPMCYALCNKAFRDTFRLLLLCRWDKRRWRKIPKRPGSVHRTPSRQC
Read-out: ligand displacement
Tested at: 10 µM
Measurement: inhibition
SMILES = Cc1cc(Nc2nccc(C)n2)cc(-c2cnc([C@@]3(O)CC[C@H](C(=O)O)C(C)(C)C3)s2)c1; result = -13.7%
SMILES = Cc1ccccc1Oc1cc(-n2c(=O)cc(C(F)(F)F)[nH]c2=O)c2ccccc2c1Cl; result = 17.8%
SMILES = C[C@@H](c1cccc(C#N)c1)n1cc(Cl)cc(C(N)=O)c1=N; result = 14.9%
SMILES = Cc1c(NC(=O)c2cc(C(N)=O)nc3cc(F)ccc23)c(C(F)(F)F)nn1Cc1ccc(C#N)cc1; result = 28.2%

Block 3
SMILES: N/C(=N\[N+](=O)[O-])N/N=C\c1ccc(-c2cccc([N+](=O)[O-])c2)o1
Read-out: enzyme activity
Action: inhibitor
Tested at: 0.5 µM
Relative to: control
Measurement: remaining activity
target = HIPK2 (Homo sapiens, UniProt Q9H2X6); result = 103%
target = AXL (Homo sapiens, UniProt P30530); result = 100%
target = DYRK3 (Homo sapiens, UniProt O43781); result = 102%

Further values, each from its own experiment
Structure (SMILES) = CC(C)N(CCNC(=O)CN1CCCC1=O)C(C)C; target or system = HaCaT; conditions = 100 µM, 60 h; measurement = viability; result = 114%
Structure (SMILES) = COc1ccc(-c2c(Nc3ccccn3)[nH]c3c(C4=CCCCC4)c(-c4ccccc4)nn3c2=O)cc1; test system = patients with advanced malignancies; conditions = oral, dose not given, treatment-emergent adverse events; measurement = grade 3 pancreatitis incidence; result = 5%

A few entries again (block 1):
cell line = L929; assay = CCK-8; conditions = 12.5 µM; result = 113% and 112% and 110%
cell line = L929 RIPK3 knockout; conditions = 3.125 µM; result = 97.5% and 104% and 97.3% and 96%
